Measurements pooled from the literature.
Compare with care: the assays were run in different laboratories. ± gives the spread as reported. Values after ≈ are worked out from the molar mass of the structure shown.

SMILES	tested on	assay	system	conditions	scale	endpoint	result
CSC(=NNC(=O)c1ccc([N+](=O)[O-])cc1)SC	Mycobacterium		Smegmatis			MIC	50 µg/mL (≈ 175 µM)
COC(=O)C1=CO[C@@H](OC(C)=O)[C@@H]2C(Cn3cc(C4(O)CCCCC4)nn3)=CC[C@H]12	SK-N-SH	neuroprotection, MTT		0.6 µM, 24 h, added: 250 µM H2O2		viability	57.1 ± 1.2%
CC(C)CC(O)(CC(C)C)c1cn(C(=O)N2CCCC2)nn1	mouse T-cells	N-terminal labeled proteins, N-terminal enrichment proteomics, item: OXSR1		1 nM, 6 h	reference: DMSO	SILAC ratio	2.52 ± 0.21
CCO[C@H]1[C@H](O)[C@@H](N)[C@@H](O[C@H]2[C@H](O[C@@H]3O[C@H](CO)[C@@H](O[C@H]4O[C@@H](CN)[C@@H](O)[C@H](O)[C@H]4N)[C@H]3O)[C@@H](O)[C@H](N)C[C@@H]2N)O[C@@H]1CO	Mycobacterium smegmatis ribosome A1408G	translation, cell-free luciferase synthesis				IC50	8.83 ± 3.1 µg/mL (≈ 13.7 µM)
COC(=O)C1=CO[C@@H](OC(C)=O)[C@@H]2C(Cn3cc(-c4ccc(OC)cc4)nn3)=CC[C@H]12	SK-N-SH	neuroprotection, MTT		0.075 µM, 24 h, added: 250 µM H2O2		viability	72.5 ± 0.6%
CSCC[C@@H]1NC(=O)[C@H](CCCNC(=N)N)NC(=O)[C@H](Cc2ccc(O)cc2)NC(=O)[C@@H](NC(=O)[C@H](CCCNC(=N)N)NC(=O)[C@H](CCCCN)NC(=O)[C@H](CC(=O)O)NC(=O)[C@H](C)N)CSSC[C@@H](C(=O)N[C@@H](CCCNC(=N)N)C(=O)N[C@@H](Cc2ccc(O)cc2)C(=O)NCC(=O)O)NC(=O)CNC(=O)[C@H](CCCCN)NC(=O)[C@H](CCCCN)NC(=O)[C@@H]2CSSC[C@H](NC1=O)C(=O)N[C@@H](CCC(N)=O)C(=O)N[C@@H](CCCNC(=N)N)C(=O)N[C@@H](Cc1ccc(O)cc1)C(=O)N[C@@H](Cc1c[nH]cn1)C(=O)N[C@@H](CCC(N)=O)C(=O)N[C@@H](CCCNC(=N)N)C(=O)N[C@@H](CCCNC(=N)N)C(=O)N[C@@H](CCC(N)=O)C(=O)N[C@@H](CCCNC(=N)N)C(=O)N[C@@H](CCCNC(=N)N)C(=O)N[C@@H](CCC(N)=O)C(=O)N2	Kv1.1 (human)	ion current, inhibitor		concentration not given, pH 7.4		inhibition	41.2 ± 2.9%
CCCCCCCCC(=O)NCc1ccc(O)c(OC)c1	mouse mAb 1-D6	antibody binding, indirect competitive ELISA		added: coating antigen 1-OVA		IC50	2.13 µg/mL (≈ 7.25 µM)
CC1OCC2OC(OC3C(N)CC(N)C(O)C3OC3OC(CO)C(OC4OC(CN)C(O)C(O)C4N)C3O)C(N)C(O)C2O1 (stereo not drawn)	ribosome with mitochondrial A site	luciferase translation, cell-free translation				IC50	206 ± 112 µg/mL (≈ 322 µM)
COC(=O)C1=CO[C@@H](O)[C@@H]2C(Cn3cc(C4(O)CCCCC4)nn3)=CC[C@H]12	SK-N-SH	neuroprotection, MTT		0.6 µM, 24 h, added: 250 µM H2O2		viability	74.1 ± 1.7%
C=CCc1cc2c(c(OC)c1OC)OCO2	SK-OV-3	cell growth or viability, MTT		72 h		GI50	> 250 µM
Cc1c(-c2cccc(C3=NCCN3)c2)oc(-c2cccc(C3=NCCN3)c2)c1C	F21T G-quadruplex DNA	FRET melting competition		1 µM, added: calf thymus DNA, G4:CT 1:1	reference: without competitor	remaining ΔTm	100%
CCCCCCCCCCOCc1cn(CC2=CC[C@@H]3C(C(=O)OC)=CO[C@@H](O)[C@H]23)nn1	SK-N-SH	neuroprotection, MTT		0.6 µM, 24 h, added: 250 µM H2O2		viability	61.2 ± 0.8%

Some of these lines once more:
SMILES	tested on	assay	system	conditions	scale	endpoint	result
COC(=O)C1=CO[C@@H](OC(C)=O)[C@@H]2C(Cn3cc(C4(O)CCCCC4)nn3)=CC[C@H]12	SK-N-SH	neuroprotection, MTT		0.6 µM, 24 h, added: 250 µM H2O2		viability	57.1 ± 1.2%
